Measured values gathered from unrelated publications.
Compare with care: the assays were run in different laboratories. ± gives the spread as reported.
CHRM1: Muscarinic acetylcholine receptor M1 (CHRM1, Homo sapiens, UniProt P11229)
Chain of UniProt P11229 (whole entry, looked up): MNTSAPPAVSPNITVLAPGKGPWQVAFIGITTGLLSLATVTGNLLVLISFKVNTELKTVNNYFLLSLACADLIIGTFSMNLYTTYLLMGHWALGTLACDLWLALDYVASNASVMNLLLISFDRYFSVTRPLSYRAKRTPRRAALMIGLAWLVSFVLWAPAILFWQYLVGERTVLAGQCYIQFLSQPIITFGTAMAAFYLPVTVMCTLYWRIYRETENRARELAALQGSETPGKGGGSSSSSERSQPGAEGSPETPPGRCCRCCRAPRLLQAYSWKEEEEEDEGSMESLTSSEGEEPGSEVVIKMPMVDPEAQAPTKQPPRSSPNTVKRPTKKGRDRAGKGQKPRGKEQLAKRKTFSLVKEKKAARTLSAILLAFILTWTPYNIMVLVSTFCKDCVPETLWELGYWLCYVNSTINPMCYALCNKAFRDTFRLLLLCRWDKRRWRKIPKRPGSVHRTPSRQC

SMILES | tested on | assay | test system | conditions | how to read | measurement | value
CC(O)CCc1ccc(O)cc1 (stereo not drawn) |  |  | male C57BL/6J mice, brain | oral, 200 mg/kg, 0 to 12 h, low-fat diet |  | AUC(0-t) | 18.8 ± 1.65 nmol·min/g
Cn1ncnc1[C@H]1c2n[nH]c(=O)c3cc(F)cc(c23)N[C@@H]1c1ccc(F)cc1 |  |  | female FVB Abcb1/Abcg2 knockout mice, plasma | oral, 0.5 mg/kg, 4 h |  | AUC(0-t) | 790 ng·h/mL
CS(=O)(=O)n1cc2c(n1)CN([C@H]1CO[C@H](c3cc(F)ccc3F)[C@@H](N)C1)C2 |  |  | male human, plasma | oral, 100 mg, single dose, fasted |  | AUC(0-t) | 94.6 µM·h
CCCCC1(CCCC)CN(c2ccccc2)c2cc(SC)c(OCC(=O)N[C@@H](C(=O)NCC(=O)O)c3ccccc3)cc2S(=O)(=O)C1 |  |  | human, plasma | oral, 10 mg, no breakfast |  | AUC(0-t) | 5.46 ng·h/mL
NC(=O)c1cnc2[nH]ccc2c1N[C@@H]1[C@@H]2CC3C[C@H]1C[C@@](O)(C3)C2 |  |  | healthy Caucasian men, plasma | oral, 200 mg, single dose fasted |  | AUC(0-t) | 1510 ng·h/mL
Cn1ncc2cc(COc3ccccc3-c3cc(=O)n(C4CCCCC4O)cn3)ccc21 (stereo not drawn) | CHRM1 | positive allosteric modulator, IP1 accumulation | CHO-M1 cells | 10 µM, 60 min, 37 °C, with: ACh | relative to: ACh alone, higher = stronger potentiation | ΔpEC50 of ACh | 0.95 ± 1.04 log units
CC(C)=CCC[C@](C)(O[C@@H]1O[C@H](CO)[C@@H](O)[C@H](O)[C@H]1O)[C@H]1CC[C@]2(C)[C@@H]1[C@H](O)C[C@@H]1[C@@]3(C)CC[C@H](O[C@@H]4O[C@H](CO)[C@@H](O)[C@H](O)[C@H]4O[C@@H]4O[C@H](CO)[C@@H](O)[C@H](O)[C@H]4O)C(C)(C)[C@@H]3CC[C@]12C |  | LC-MS/MS | healthy female volunteers, serum | oral, 3 g fermented red ginseng |  | AUC(0-t) | 153 ± 92.1 ng·h/mL
CNCc1ccc(-c2[nH]c3cc(F)cc4c3c2CCNC4=O)cc1 |  |  | human patients, plasma | oral, 300 mg once daily, day 1, 24 h, single dose, arithmetic mean |  | AUC(0-t) | 5740 ng·h/mL
CCCCCN1C[C@H](O)[C@@H](O)[C@H](O)[C@@H]1CO |  |  | human, plasma | oral, 1000 mg, single dose, fasted, healthy volunteers |  | AUC(0-t) | 50000 ng·h/mL
C(=NOCc1ccccc1)c1c(-c2ccccc2)[nH]c2ccccc12 | RAW264.7 | NO release, inhibitor, Griess |  | 50 µM, 20 h, LPS-stimulated |  | inhibition | 85.3%
CC(C)[C@H](NC(=O)[C@@H]1CCCN1C(=O)[C@H](CCCNC(=N)N)NC(=O)[C@H](CS)NC(=O)[C@H](Cc1c[nH]c2ccccc12)NC(=O)[C@H](CCCNC(=N)N)NC(=O)[C@@H](Cc1ccccc1)NC(=O)[C@H](Cc1c[nH]cn1)NC(=O)[C@H](CCC(=O)O)NC(=O)[C@H](CS)NC(=O)[C@H](CS)NC(=O)[C@H](CCCCN)NC(=O)[C@@H]1CC(=O)N[C@@H](CCCNC(=N)N)C(=O)N[C@@H](C)C(=O)N[C@@H](CC(=O)O)C(=O)N[C@H](Cc2ccc(O)cc2)C(=O)N1)C(N)=O [technetium-99m labelled] |  |  | C57 mice, spleen | intravenous, 0.037 MBq, 0.5 h |  | tissue uptake | 1.54 ± 0.41 %ID/g
CS(=O)(=O)n1cc2c(n1)CN([C@H]1CO[C@H](c3cc(F)ccc3F)[C@@H](N)C1)C2 |  |  | male human, plasma | oral, 200 mg, single dose, fasted, healthy volunteers |  | AUC(0-t) | 155 µM·h
OCCc1ccc(O)cc1 |  |  | male C57BL/6J mice, brain | oral, 200 mg/kg, 0 to 12 h, low-fat diet |  | AUC(0-t) | 1.58 ± 0.16 nmol·min/g
CN1CCN(c2ccc3nc(-c4c(N)c5c(F)cccc5[nH]c4=O)[nH]c3c2)CC1 |  |  | NOD/SCID mice, male, blood or plasma | oral, 30 mg/kg once daily, day 1 |  | AUC(0-t) | 6080 ± 710 ng·h/mL
O=[N+]([O-])c1ccc2[nH]c(-c3ccccc3)cc2c1 | RAW264.7 | sulforhodamine B |  | 50 µM, 20 h | relative to: vehicle | viability | 81.7 ± 3.4%
CNC(=O)c1ccc(-c2cnc3ncc(Cc4ccc5ncccc5c4)n3n2)cc1F |  |  | human severe hepatic impairment | oral, 200 mg single dose, adjusted geometric mean |  | AUC(0-t) | 7710 ng·h/mL
COc1cc(CCC(C)=O)ccc1O |  |  | female C57BL/6J mice, brain | oral, 200 mg/kg, 0 to 12 h, low-fat diet |  | AUC(0-t) | 1.76 ± 0.27 nmol·min/g
CC[C@H](C)[C@@H]1NC(=O)[C@H](Cc2ccc(O)cc2)NC(=O)[C@@H](N)CSSC[C@@H](C(=O)N2CCC[C@H]2C(=O)N[C@@H](CC(C)C)C(=O)NCC(N)=O)NC(=O)[C@H](CC(N)=O)NC(=O)[C@H](CCC(N)=O)NC1=O |  | microdialysis, radioimmunoassay | C57BL/6J male mice, wild type, hippocampus extracellular fluid | intraperitoneal, 12 µg total, total area from zero |  | AUC(0-t) | 151 ± 89 pg·30 min/sample
Cc1ccc(NC(=O)c2ccc(CN3CCN(C)CC3)cc2)cc1Nc1nccc(-c2cncc(-c3oncc3C)c2)n1 |  |  | healthy volunteers, plasma | oral, 25.0 mg once daily, day 7, 7-day dosing, mean |  | AUC(0-t) | 46000 ng·h/mL
CC(C)=CCC[C@](C)(O[C@@H]1O[C@H](CO)[C@@H](O)[C@H](O)[C@H]1O)[C@H]1CC[C@]2(C)[C@@H]1[C@H](O)C[C@@H]1[C@@]3(C)CC[C@H](O[C@@H]4O[C@H](CO)[C@@H](O)[C@H](O)[C@H]4O)C(C)(C)[C@@H]3CC[C@]12C |  | LC-MS/MS | healthy female volunteers, serum | oral, 3 g fermented red ginseng |  | AUC(0-t) | 22 ± 15.5 ng·h/mL
CC(=O)C=Cc1ccc(O)c(O)c1 |  |  | normal-weight male C57BL/6J mice, brain | oral, 200 mg/kg, 0 to 12 h, low-fat diet |  | AUC(0-t) | 0.19 ± 0.022 nmol·min/g
CCCC[C@H](NC(C)=O)C(=O)N[C@H]1CCC(=O)NC[C@@H](C(=O)N[C@@H](Cc2c[nH]c3ccccc23)C(N)=O)NC(=O)[C@H](CCCNC(=N)N)NC(=O)[C@@H](Cc2ccccc2)NC(=O)[C@H](Cc2c[nH]cn2)NC1=O |  |  | CD Sprague-Dawley rat, female, plasma | subcutaneous, 1.0 mg/kg/day, day 1 |  | AUC(0-t) | 880 ng·h/mL
OCCc1ccc(O)c(O)c1 |  |  | normal-weight male C57BL/6J mice, brain | oral, 200 mg/kg, 0 to 12 h, low-fat diet |  | AUC(0-t) | 0.024 ± 0.002 nmol·min/g
O=C(c1ccc(COc2ccccc2-c2cc(=O)n(C3CCCCC3O)cn2)cc1)N1CCCCC1 (stereo not drawn) | CHRM1 | allosteric agonist, IP1 accumulation | CHO-M1 cells | 1 µM, unit not given | relative to: maximum ACh response | change in baseline activity | 11.1 ± 3
